Experimental data pooled from the literature.
Compare with care: the assays were run in different laboratories.
PIK3CA H1047L: Phosphatidylinositol 4,5-bisphosphate 3-kinase catalytic subunit alpha isoform (PIK3CA, Homo sapiens, UniProt P42336, H1047L)
PIK3CA Q546K: Phosphatidylinositol 4,5-bisphosphate 3-kinase catalytic subunit alpha isoform (PIK3CA, Homo sapiens, UniProt P42336, Q546K)
PIK3CA: Phosphatidylinositol 4,5-bisphosphate 3-kinase catalytic subunit alpha isoform (PIK3CA, Homo sapiens, UniProt P42336)

| SMILES | target | test | conditions | scale | remaining binding [%] |
| --- | --- | --- | --- | --- | --- |
| CC(=O)c1cnc(N)nc1N1CC[C@H]1c1nn2ccc(Cl)c2c(=O)n1-c1ccccc1 | Phosphatidylinositol 4,5-bisphosphate 3-kinase catalytic subunit alpha isoform (PIK3CA, Homo sapiens, UniProt P42336, C420R) | binding, competition with immobilised ligand | 10 µM |  | 83 |
| Nc1ncc2c(n1)-c1c([nH]c3ccc(C4=CCOCC4)cc13)CCC2 | PIK3CA H1047L | binding, competition with immobilised ligand | 1 µM |  | 85 |
| CNC(=O)C1CCN(c2cc(C)c(F)cc2NC(=O)c2ccc(-c3cc(O)ccc3C)c(C)c2)CC1 | PIK3CA Q546K | binding, competition with immobilised ligand | 1 µM |  | 100 |
| C=CC(=O)N1CCCC(n2c(=O)c3ncccc3n(Cc3ccc(Oc4ccccc4)cc3)c2=O)C1 (stereo not drawn) | PIK3CA | cell-free assay, competition with immobilised ligand | 1 µM |  | 81 |
| Cc1cnc2nc1Nc1cccc(c1)COC/C=C/COCc1cc(ccc1OCCN1CCOCC1)N2 | Phosphatidylinositol 4,5-bisphosphate 3-kinase catalytic subunit alpha isoform (PIK3CA, Homo sapiens, UniProt P42336, I800L) | binding | 0.1 µM |  | 80 |
| Cc1ccc(-c2c(/C=C(\C#N)C(=O)NC(C)C)n(CCCO)c3ncnc(N)c23)cc1 | Phosphatidylinositol 4,5-bisphosphate 3-kinase catalytic subunit alpha isoform (PIK3CA, Homo sapiens, UniProt P42336, E542K) | cell-free assay, competition with immobilised ligand | 1 µM |  | 100 |
| CN1CCN(Cc2ccc(NC(=O)c3cccc(C#Cc4cnc(N)c5ncccc45)c3)cc2C(F)(F)F)CC1 | PIK3CA | cell-free assay, competition with immobilised ligand | 50 nM |  | 84 |
| CNC1C[S+]2CC[S+]3CC[S+](C1)[Ru-4]321([N]=C=S)[n]2c3ccc(OC)cc3c3c4c(c5cc(F)c[n+]1c5c32)C(=O)NC4=O (stereo not drawn) | Phosphatidylinositol 4,5-bisphosphate 3-kinase catalytic subunit alpha isoform (PIK3CA, Homo sapiens, UniProt P42336, E545K) | KinomeScan | 0.1 µM | baseline: untreated | 100 |
| CC(C)=CC1OC(C)(C)C2C=C3C(=O)C(Cl)=CC(O)C3C3C(O)C4OC4C(=O)C132 (stereo not drawn) | Phosphatidylinositol 4,5-bisphosphate 3-kinase catalytic subunit alpha isoform (PIK3CA, Homo sapiens, UniProt P42336, E545A) | cell-free assay, competition with immobilised ligand | 10 µM |  | 60 |
| CCN1CCN(Cc2ccc(C(=O)Nc3ccc(C)c(NCc4cnc5[nH]ccc5c4OC)c3)cc2C(F)(F)F)CC1 | Phosphatidylinositol 4,5-bisphosphate 3-kinase catalytic subunit alpha isoform (PIK3CA, Homo sapiens, UniProt P42336, M1043I) | binding, competition with immobilised ligand | 1 µM |  | 91 |
| C=CC(=O)N1CCc2ccc(-n3c(=O)ccc4cnc5ccc(-c6cnn(C)c6)cc5c43)cc21 | PIK3CA Q546K | KINOMEscan | 1 µM | baseline: DMSO control | 81 |
| COc1c(Cl)cccc1Nc1c(-c2ccncc2C#C[C@@]2(C)CCCN2C(=O)/C=C/CN(C)C)[nH]c2c1C(=O)NCC2 | PIK3CA H1047L | binding, competition with immobilised ligand | 3 µM |  | 64 |
